Assay results from different studies.
Parts stem from different laboratories: compare values within a part only.

Sample 1
Target: RING finger protein unkempt homolog, zinc fingers 1-6, GST-SBP tag (UNK, Homo sapiens, UniProt Q9C0B0, residues 30-357)
Method: RNA Bind-n-Seq
Form: RNA
Matrix: in vitro
Concentration: not given
Setting: RNA with constant flanks, human and mouse sites, ends assumed
Relative to: input RNA pool
Reading: higher = stronger binding
Quantity: bound/input enrichment
Target sequence (chain): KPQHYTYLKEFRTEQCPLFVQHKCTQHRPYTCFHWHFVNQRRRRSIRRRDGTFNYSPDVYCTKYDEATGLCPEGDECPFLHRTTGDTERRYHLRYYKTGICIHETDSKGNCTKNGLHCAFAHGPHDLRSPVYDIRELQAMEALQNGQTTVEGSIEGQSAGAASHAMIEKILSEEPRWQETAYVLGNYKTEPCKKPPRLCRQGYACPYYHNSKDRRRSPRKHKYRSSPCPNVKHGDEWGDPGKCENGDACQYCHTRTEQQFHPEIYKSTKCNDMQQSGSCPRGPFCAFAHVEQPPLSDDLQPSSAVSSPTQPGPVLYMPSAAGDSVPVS
Strand = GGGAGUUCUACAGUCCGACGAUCGAUUAUUUCUGAAGGUGUUUUUUUCUUUAUUUCUUUUUCUUUUUUUUUUUUUUUCUUUUUCUUUUUUUUUUGCACAUGACAGUGUUUGUAUUGAGGACCUUCCAAGGAAGAGGGAUGCUGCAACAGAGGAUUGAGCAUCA; value = 6.61 ratio
Strand = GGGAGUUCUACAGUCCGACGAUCUACUUCGAAUGCCAGGCCAAGUAUGGCGCCUUUGUCAAGCCAGCAGUCGUGACGGUGGGGGACUUCCCGGAGGAGGACUACGGGUUGGACGAGAUAUGACACCUAAGGAAUUCCCCUGCUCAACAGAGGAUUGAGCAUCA; value = 0.062 ratio
Strand = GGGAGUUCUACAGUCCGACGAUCAAGGAAGAGAAUAAAACCUCAAAUUCAACCUCUUCAGUAAUUUCUCUUUCUGUGGCACCAACAUUCAGCCCAAACCUGACUCUGGAGCCCACCUAUGUGACUACUGUUAAUUCUUCACACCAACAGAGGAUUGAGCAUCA; value = 0.215 ratio
Strand = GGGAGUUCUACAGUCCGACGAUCUGCUGUUGAAGUACAUGUAUAUUAUAAAUUAUCUUAUUUGUGUUAUACUCUUACAUGUUAUCUUUUCUAAGAAAACAAAGUCCCUAUUAUUCCUAUUGCAAAGCACACAGGAAUUAAGAACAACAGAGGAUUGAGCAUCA; value = 0.194 ratio
Strand = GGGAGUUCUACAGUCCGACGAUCUUGAAGGUACUGGGAACAGCUUUUGAUCCUUUCUUAGGAGGAAAAAACUUCGAUGAAAAGUUAGUGGAACAUUUUUGUGCAGAAUUUAAAACUAAGUACAAGUUGGAUGCAAAAUCCAAACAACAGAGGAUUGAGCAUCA; value = 0.324 ratio
Strand = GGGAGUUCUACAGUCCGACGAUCGUAAUGGGAAGUGGGCCAAAGGAAUCAGCUUUAAAAGCCCUAAAUAGUGACAUGCCCUUAUAUAUUCUGUCAUCCUCUCAAGGUAGAGGGCUGAAACCUCAUUAUGCUCAACUUAUGAGGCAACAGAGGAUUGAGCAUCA; value = 0.466 ratio
Strand = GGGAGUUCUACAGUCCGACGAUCCUGGGAACCUCCCAGAGGUCCAGCCCAUCUCGGAGCAUCCCGGAGGAAAUCUGCAGAGGGUUAGGAGUGGGUGACAAGAGCCUGAUCUCUUCCUGUUUUGUACAUAGAUUUAUUUUUCAGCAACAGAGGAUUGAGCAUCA; value = 1.5 ratio
Strand = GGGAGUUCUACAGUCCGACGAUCAGUCCACUGAUGCAGUGCUCAUUUUACAAUAGAUCAUCUCCUGUACACAUCAUAGCCACUAGCAAAAGUUUACAUUCCUAUGCACGCCCUCCACCAGUGUCCUCUUCUUCGAAGAGUGAACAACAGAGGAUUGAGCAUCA; value = 2.16 ratio
Strand = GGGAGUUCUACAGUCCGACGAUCAAAAGGAAAAGGAAAUGCUUUUGGUUGGGCAUGGAUGGGCUGGAGGCUGCCGAGGGGUCCAGUACUGGAAGCUCAGAGGACAGCUCAGAGGAUGACAGUGAGGAUGCUCCUGGGACUUCGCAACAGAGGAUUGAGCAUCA; value = 0.124 ratio
Strand = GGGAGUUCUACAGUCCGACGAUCAUUAUCACAGAAGAACCUGAAAUUGGCAAUAUAGAAAAACCUGUAGAAAUUUUUCAUAUAAUUGAGCAUUUUUGUCUUGGUAGAAGACGCCUUCAUCUAUUUGGAAGAGAUAGUACAAUUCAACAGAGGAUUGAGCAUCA; value = 2.74 ratio
Strand = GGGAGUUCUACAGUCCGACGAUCGGAAUAUUCAUUGUACUGAAUAUUACCCUUGUGCUUGCCGCUGUAUUUAAACUUGAAACAGAUAGAAGUAUAUGGCCCUUGAUAAGAAUCUAUCGGGGUGGCUUUCUUCUGAUUGAAUUCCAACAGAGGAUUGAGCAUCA; value = 0.191 ratio

Sample 2
Target: Sal-like protein 4, full length isoform A (SALL4, Homo sapiens, UniProt Q9UJQ4, residues 1-1053)
Chain of UniProt Q9UJQ4 (whole entry, looked up): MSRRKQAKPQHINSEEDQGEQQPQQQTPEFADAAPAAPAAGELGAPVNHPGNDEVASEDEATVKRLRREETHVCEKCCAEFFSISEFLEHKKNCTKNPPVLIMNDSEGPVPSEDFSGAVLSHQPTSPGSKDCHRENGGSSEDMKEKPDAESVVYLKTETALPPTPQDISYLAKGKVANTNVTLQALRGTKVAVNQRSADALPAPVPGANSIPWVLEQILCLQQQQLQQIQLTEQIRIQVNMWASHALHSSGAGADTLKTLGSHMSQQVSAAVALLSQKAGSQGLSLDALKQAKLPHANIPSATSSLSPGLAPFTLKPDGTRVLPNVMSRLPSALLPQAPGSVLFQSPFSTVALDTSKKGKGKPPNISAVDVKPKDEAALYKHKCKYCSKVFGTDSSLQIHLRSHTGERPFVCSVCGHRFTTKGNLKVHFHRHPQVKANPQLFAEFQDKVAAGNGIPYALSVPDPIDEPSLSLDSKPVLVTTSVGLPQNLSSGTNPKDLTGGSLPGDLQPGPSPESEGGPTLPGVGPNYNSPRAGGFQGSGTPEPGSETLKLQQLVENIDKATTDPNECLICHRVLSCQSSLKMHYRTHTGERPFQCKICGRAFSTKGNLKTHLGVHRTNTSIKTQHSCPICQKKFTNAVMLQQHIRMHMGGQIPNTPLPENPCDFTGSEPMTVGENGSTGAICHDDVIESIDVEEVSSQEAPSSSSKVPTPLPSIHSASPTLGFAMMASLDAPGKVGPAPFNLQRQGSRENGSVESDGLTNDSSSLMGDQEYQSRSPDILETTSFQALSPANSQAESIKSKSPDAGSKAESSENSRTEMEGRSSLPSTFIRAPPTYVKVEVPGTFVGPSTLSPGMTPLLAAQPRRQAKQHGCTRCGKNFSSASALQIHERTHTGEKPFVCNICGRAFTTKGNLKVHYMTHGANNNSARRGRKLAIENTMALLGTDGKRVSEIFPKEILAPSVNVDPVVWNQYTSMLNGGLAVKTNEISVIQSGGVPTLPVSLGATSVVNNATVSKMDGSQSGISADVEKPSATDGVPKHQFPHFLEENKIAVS
Method: universal PBM
Form: double-stranded DNA, one strand shown
Matrix: in vitro
Concentration: 600 nM
Setting: 8-mer, flanks averaged, mean of replicates
Reading: higher = stronger binding
Quantity: E-score
Strand = AGAGCAAT; value = 0.00801
Strand = TCGACAGA; value = 0.117
Strand = ACTCACCT; value = -0.192
Strand = ATGCACTG; value = 0.0545
Strand = CTGAGTCC; value = -0.268
Strand = CGTCGTTA; value = -0.0266
Strand = AGCAAGGG; value = -0.0951
Strand = CAGAGTCA; value = -0.142
Strand = ACCGTGGG; value = -0.373
Strand = ACCTTGCC; value = -0.0655
Strand = CTAACGGC; value = -0.0793
Strand = CGAAAAAA; value = 0.254
Strand = CAAGCGAA; value = -0.0565
Strand = GATACCGC; value = 0.00323
Strand = CGCAAAGA; value = 0.0421
Strand = GTAGTAGA; value = 0.126
Strand = AGTAAGGG; value = 0.00639
Strand = AAGAGCTT; value = -0.0784
Strand = AACGGGGG; value = -0.252
Strand = CCCTACAG; value = -0.203
Strand = AGGATTAG; value = 0.0643
Strand = CGCATACG; value = -0.0177
Strand = CAGTGTCA; value = -0.00517
Strand = CTATGGAG; value = 0.0504

Sample 3
Target: Fragile X messenger ribonucleoprotein 1, C-terminal low-complexity region (Fmr1, Mus musculus, UniProt P35922)
Method: RNA Bind-n-Seq
Form: RNA
Matrix: in vitro
Concentration: 200 nM
Setting: whole 134-nt RNA, ends assumed
Added: 150 mM LiCl
Relative to: input library
Reading: higher = stronger binding
Quantity: log2 enrichment
Each molecule: 7-deaza-guanosine replaces G
Strand = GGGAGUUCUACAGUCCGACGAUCAGUCCUGUGCUACACAUCGUAUGUACCGAAUCGGGAAAAGGGGAAAAGGGAAAAGGGGAAAGUAUUAUGUUACGCCGUUCGGAUCUGCACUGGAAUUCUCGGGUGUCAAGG; value = 0.234
Strand = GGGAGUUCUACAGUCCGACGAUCACCAUGCAGGUGGGCAUCUUUGGGAAGUGGGGCAAGGGGGGGAUAGUGAGGGGGGUAACACUUUGGGAACAGGUGGUCCCAGGUCGUUUCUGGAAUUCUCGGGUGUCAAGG; value = 1.34
Strand = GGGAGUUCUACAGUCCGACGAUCUCCUGUGCUACACAUCGUAUGUACCGAAUCGGGGAAAAAGGGAAAAAGGGGAAAAAGGGGAAAGUAUUAUGUUACGCCGUUCGGAUCUGCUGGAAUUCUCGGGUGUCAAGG; value = -0.6
Strand = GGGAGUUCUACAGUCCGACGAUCCAAGUCCUGUGCUACACAUCGUAUGUACCGAAUCGGUUUUUUUGGAAAGGUUUGGAAAGUAUUAUGUUACGCCGUUCGGAUCUGCACUUCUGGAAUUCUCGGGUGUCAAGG; value = -2.75
Strand = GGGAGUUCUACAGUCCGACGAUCUCCUGUGCUACACAUCGUAUGUACCGAAUCGGUUUUUUGGGGUUUUUUGGUUUUUUGGGAAAGUAUUAUGUUACGCCGUUCGGAUCUGCAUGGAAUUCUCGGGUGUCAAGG; value = -0.154
Strand = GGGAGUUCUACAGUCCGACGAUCUCCUGUGCUACACAUCGUAUGUACCGAAUCGGGGAAAAAAAGGGGAAAGGGGUUUGGGGAAAGUAUUAUGUUACGCCGUUCGGAUCUGCAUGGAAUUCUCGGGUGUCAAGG; value = -0.318
Strand = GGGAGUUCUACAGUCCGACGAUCUUUUAGAAAGAGAAGGGGAAGAAAAUGAAGCCUUACAUAAGAUGAUUGCAAACGAGCAAAAGACUUCUCUCCCAAAUUUGUUCCAGGAUAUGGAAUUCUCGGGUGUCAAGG; value = -2.88
Strand = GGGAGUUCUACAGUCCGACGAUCCUCAAGUCCUGUGCUACACAUCGUAUGUACCGAAUCGGGAAGGAAGGAAGGGGAAAGUAUUAUGUUACGCCGUUCGGAUCUGCACUUCCAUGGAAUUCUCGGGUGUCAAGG; value = -0.824
Strand = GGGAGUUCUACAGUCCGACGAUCGUCCUGUGCUACACAUCGUAUGUACCGAAUCGGGAAAAAGGGUUUUUUUGGGAAAGGGAAAGUAUUAUGUUACGCCGUUCGGAUCUGCACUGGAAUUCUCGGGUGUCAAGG; value = -1.96
Strand = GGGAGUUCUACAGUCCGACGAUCUCAAGUCCUGUGCUACACAUCGUAUGUACCGAAUCGGAAAAAGGUUUUUGGUGGAAAGUAUUAUGUUACGCCGUUCGGAUCUGCACUUCCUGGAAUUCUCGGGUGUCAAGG; value = -1.35
Strand = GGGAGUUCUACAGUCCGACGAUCAGUCCUGUGCUACACAUCGUAUGUACCGAAUCGGGAAAAAAAGGGUUUGGGAAAGGGAAAGUAUUAUGUUACGCCGUUCGGAUCUGCACUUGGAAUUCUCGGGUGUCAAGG; value = -2.24

Sample 4
Target: RNA binding protein fox-1 homolog 2, RRM domain, GST-SBP tag (RBFOX2, Homo sapiens, UniProt O43251-10, residues 100-194)
Method: RNA Bind-n-Seq
Form: RNA
Matrix: in vitro
Concentration: 365 nM
Setting: natural RNA segment, single round, ends assumed
Relative to: no-protein control
Reading: higher = stronger binding
Quantity: RBNS enrichment (R)
Target sequence (chain): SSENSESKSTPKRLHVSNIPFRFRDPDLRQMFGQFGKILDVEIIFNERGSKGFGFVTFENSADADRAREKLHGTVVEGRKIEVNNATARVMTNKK
Strand = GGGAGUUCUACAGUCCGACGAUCGUGGUACCCAAUGCCAGAAUGUAAGAGUUGCAAGUGAUUUUGUGCUGCUAUUCAUUAAAACUUGUAUUCCAGUCUUGCCAGCUUAAGGAGAUCAAGAUAUUAAGAGGUAUUGGAAUUCUCGGGUGCCAA; value = 0.926
Strand = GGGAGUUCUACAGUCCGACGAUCACCUGUCUGUAUUAUUCUGACCCAGGGGAGUCAGUCACUGUGGGGCCUCCUUCCUCUGCUGGUAUACUCAUGGACUCAUUCACUGCCAAGAUGACCAAAUACUCUACCACUGGAAUUCUCGGGUGCCAA; value = 0.579
Strand = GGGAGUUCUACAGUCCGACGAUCUGGACUGCAAGGGAGUGGGCGGAUCUUCCUCUUAAACAGUAUUCUUAGAGUAGGAUUGACCUCAUGGGCUGCUCUGCCCACUUGGUCAGGCUCUCCUGAGCAGGACUGCUUGGAAUUCUCGGGUGCCAA; value = 0.26
Strand = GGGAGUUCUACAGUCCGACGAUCCCUUGCUGGCCUCAAGCUUGCAAUGCUCCUGCCUCAGCCUCUCAACUUCUAGAAUUACAUGGCUGCACCACUUCACCCAGCCUAUGUAGUUUUAUUUUAUAAAUGACACUUGGAAUUCUCGGGUGCCAA; value = 0.374
Strand = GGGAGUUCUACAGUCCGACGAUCUCAUGCUGCAUUUACUGUUUACAUUUGUUUUAUUGUACAUAGGUUUGUAAACAUUAUUGCCUGAGAUAUUUGUAUAUAACUUGGGCUUUGUAGCUUUUAUUUAUUCAGAAUGGAAUUCUCGGGUGCCAA; value = 0.56
Strand = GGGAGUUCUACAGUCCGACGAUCGUUGAAUUUUGAUUUGUCCUUGGUGGACAACUGGCUUUACCCAGUGAAGAGGGCCAGGACAGAUUGGACAGCUUAUUUCUCUAUAGCAAGUAAAAGCGUUAUGUUACAGUUGGAAUUCUCGGGUGCCAA; value = 0.396
Strand = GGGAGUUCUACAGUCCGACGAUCUAAAGAUGCAGAACGAACAGUUUGUGUGUGGGACUGACCCACCCACACACAGCAGGGCACUUGUUCUGCCUCAGGCUGCAUCUACUCAGUGCCGUUAAUAAACUUUAGAUUGGAAUUCUCGGGUGCCAA; value = 0.667
Strand = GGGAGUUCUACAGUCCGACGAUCUAAAGCCAGAUUUUAGAGGUUUGAUAUGUUUGGUCUCAGGAGCUCAAAAGAAGUAGCUUUUUCCAGUGUCUUUUGUGUUACUGAUUUGGGAAAUGUUGAAAGAUUGGACAUGGAAUUCUCGGGUGCCAA; value = 0.787
Strand = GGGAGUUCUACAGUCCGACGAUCCCAGUGGAAGAAACACCCUUUCAUCUCAGAGUCCACUGUGGCACUGGCCACCCCUCCCCAGUACAGGGGUGCUGCAGGUGGCAGAGUGAAUGUCCCCCAUCAUGUGGCCCUGGAAUUCUCGGGUGCCAA; value = 0.286

Repeated from above (sample 2):
Strand = CGCATACG; value = -0.0177
Strand = ATGCACTG; value = 0.0545
Strand = CAGAGTCA; value = -0.142
Strand = AACGGGGG; value = -0.252
Strand = ACTCACCT; value = -0.192
Strand = CAGTGTCA; value = -0.00517
Strand = GTAGTAGA; value = 0.126
